# Published values pooled from the literature.
# Lines come from different studies, so protocols differ.
SMILES,test,test system,setting,how to read,measurement,value
Cc1cc(Nc2ccc(S(F)(F)(F)(F)F)cc2)n2nc(C(C)(F)F)nc2n1,,Plasmodium vivax malaria patients,"oral, 400 mg",,patients with eye disorders,0%
COc1ccc([C@@H](O)c2cc(-c3ncnc4cc(N5CCOCC5)ccc34)c(F)cc2Cl)nn1,refers to: Constipation,locally advanced rectal cancer patients,"dose not given, all dose groups, together with: capecitabine plus radiotherapy",,patients with TEAE,21%
CNC(=O)c1cc(Oc2ccc(NC(=O)Nc3cc(C(C)(C)C)nn3-c3ccc4ncccc4c3)c(F)c2)ccn1,,patients,"oral, dose not given, cycles 1 and 2, Low Cmax subgroup",,patients with cardiac disorders,12%
CCOc1c([C@H](C)n2nc(C)c3c(N)ncnc32)cc(Cl)c(F)c1[C@@H]1CNC(=O)C1,refers to: QTcF change above 60 ms,previously treated B-cell malignancy,"oral, 30 mg once daily, overall population",reference: baseline,patients,0%
Cc1cc(-c2nnc(N)nc2-c2ccc(F)cc2)cc(Cl)n1,refers to: Hypothyroidism,"IO-naive mCRPC patients, male","oral, dose not given, treatment-related, grade 2",,patients with immune-mediated AE,0%
C=CC[C@@H]1/C=C(\C)C[C@H](C)C[C@H](OC)[C@H]2O[C@@](O)(C(=O)C(=O)N3CCCC[C@H]3C(=O)O[C@H](/C(C)=C/[C@@H]3CC[C@@H](O)[C@H](OC)C3)[C@H](C)[C@@H](O)CC1=O)[C@H](C)C[C@@H]2OC,,"kidney transplant recipients, CYP3A5*1/*1 or *1/*3 rapid metabolizers, whole blood","oral, dose not given",,patients with subtherapeutic C0,67%
C=CCN1CC(=O)N2[C@@H](Cc3ccc(O)cc3F)C(=O)N(Cc3cccc(N4CC(N5CCN(CC)CC5)C4)n3)C[C@@H]2N1C(=O)NCc1ccccc1,,advanced solid tumour patients,"10 mg twice daily, treatment-related, any grade",,patients with ALT increased,0%
COc1cc2nccc(Oc3ccc(NC(=O)c4cc5c(n(-c6ccccc6)c4=O)CCCC5=O)nc3)c2cc1OC,,patients with relapsed/refractory AML,"oral, 6 mg once daily",,patients with serious TEAEs,66.7%
COc1cc(Nc2ncc3c(n2)-c2ccc(Cl)cc2C(c2c(F)cccc2OC)=NC3)ccc1C(=O)O,,cancer patients,"oral, dose not given, all grades any attribution, together with: pembrolizumab",,patients with weight loss,25%
COCCOc1cnc2ccn([C@H](C)c3nnc4c(F)cc(-c5cnn(C)c5)cn34)c(=O)c2c1,,cancer patients,"oral, dose not given, absolute QTcF >480 ms",,patients with QTcF over threshold,8.1%
O=C(Nc1nc2cccc(-c3ccc(CN4CCS(=O)(=O)CC4)cc3)n2n1)C1CC1,refers to: bile reflux into stomach,rheumatoid arthritis patients,"oral, 200 mg once daily, 4 weeks, any relatedness",,patients with adverse event,0%
C=CC(=O)NC1CCN(c2ncc3ncnc(Nc4ccc(Oc5ccc6c(c5)ncn6C)c(C)c4)c3n2)CC1,,male patients,"oral, dose not given, treatment-related adverse events",,patients with abdominal discomfort,0%
O=C(NC[C@H]1CN(c2ccc(N3CCOCC3=O)cc2)C(=O)O1)c1ccc(Cl)s1,Phoenix NLME,"atrial fibrillation patients, plasma","oral, dose not given",,patients above AUC range,12%
FC(F)(F)c1ccc(CNc2ccc(Cc3c[nH]c4ncc(Cl)cc34)cn2)cn1,,patients with advanced solid tumours,"oral, dose not given, all grades, related to treatment",,patients with ALT increase,19%
C[C@@H](Nc1cc(F)cc(F)c1)c1cc(C(=O)N(C)C)cc2c(=O)cc(N3CCOCC3)oc12,refers to: Sepsis,advanced solid tumour patients,"oral, dose not given, dose finding",,patients discontinuing for AE,0%
Cc1cc(NC2CCN(C(=O)OC3CCN(C(=O)/C=C/CN(C)C)C3)CC2)n2ncc(C(C)C)c2n1 (stereo not shown),"Phase I dose escalation CTCAE v4.0, refers to: urinary tract infection",patients with advanced solid tumours,"dose not given, TIW dosing grade 3 or higher",,patients with adverse event,0%
C=CC(=O)Nc1cc(Nc2nccc(-c3cn(C)c4ccccc34)n2)c(OC)cc1N(C)CCN(C)C,refers to: treatment-related grade ≥3 Nausea,EGFR-mutant MET-altered NSCLC,"oral, dose not given, all",,patients with adverse events,3%
NC(=O)N1c2ccccc2C=Cc2ccccc21,,male patients,"oral, dose not given, on-treatment adverse events",,patients with Flatulence,0%
CNC(=O)c1ccc(-c2cnc3ncc(Cc4ccc5ncccc5c4)n3n2)cc1F,refers to: Vomiting,other cancer patients,"oral, 600 mg twice daily, expansion cohort, grade 3-4",,patients with adverse event,0%
CC(C)C[C@H](NC(=O)[C@@H](Cc1c[nH]c2ccccc12)NC(=O)[C@H](Cc1ccc(O)cc1)NC(=O)[C@H](CO)NC(=O)[C@H](Cc1c[nH]c2ccccc12)NC(=O)[C@H](Cc1c[nH]cn1)NC(=O)[C@@H]1CCC(=O)N1)C(=O)N[C@@H](CCCNC(=N)N)C(=O)N1CCC[C@H]1C(=O)NCC(N)=O,,"Chinese CPP children, boys","intramuscular, 22.5 mg, 12 months, day 1, month 6",,patients with TEAEs,100%
FC(F)(F)c1ccc(CNc2ccc(Cc3c[nH]c4ncc(Cl)cc34)cn2)cn1,refers to: alanine aminotransferase increased,advanced solid tumour patients,"oral, 1000 mg/day, all grades, all cohorts",,patients with treatment-related adverse event,11%
Cc1ccc(C(=O)N(CCCN)C(c2nc3snc(C)c3c(=O)n2Cc2ccccc2)C(C)C)cc1 (stereo not shown),,patients,"intravenous, dose not given, all doses",,patients with grade ≥3 mucosal inflammation,5%
